Experimental data gathered from unrelated publications.
Protocols differ between the studies behind these lines. Values joined by “and” are separate records of one study, mostly repeats; a detail may differ. ± gives the spread as reported.
gyrB with GyrA: DNA gyrase subunit B, with GyrA (gyrB, Mycobacterium tuberculosis, UniProt P9WG45)
ARID1B: AT-rich interactive domain-containing protein 1B (ARID1B, Homo sapiens, UniProt Q8NFD5)

Compound	tested on	test	test system	conditions	scale	quantity	value
Cc1cc(C)cc(NC(=O)CCc2c(C(=O)Nc3cc(C)cc(C)c3)[nH]c3ccc(Cl)cc23)c1	gyrB with GyrA					IC50	13.5 µM
CCN(CC)C(=O)c1ccc(C(c2cccc(O)c2)N2CC(C)N(Cc3ccccc3)CC2C)cc1 (stereo not drawn)	Delta-type opioid receptor (OPRD1, Homo sapiens, UniProt P41143, K108D)					Ki	0.00039 ± 0.00011 µM
O=C(CCc1c(C(=O)Nc2ccncc2)[nH]c2ccc(Cl)cc12)Nc1ccncc1	gyrB with GyrA					IC50	21.3 µM
CC(C)CC(C(=O)N1CC2(CC1C#N)C(=O)Nc1ccccc12)N(C)C(=O)c1cc2c(F)cc(F)c(F)c2[nH]1 (stereo not drawn)	Caspase-7 (CASP7, Homo sapiens, UniProt P55210)	enzyme activity, inhibitor				IC50	4.69 µM and 4.7 µM
CC1=C[C@H]2c3c(O)cc(CCc4ccccc4)cc3OC(C)(C)[C@H]2CC1	Fatty-acid amide hydrolase 1 (FAAH, Sus scrofa, UniProt Q9TUI8)	inhibitor				IC50	36.3 ± 2.7 µM
CC(C)C[C@@H]1NC(=O)CN(C)C(=O)[C@H](Cc2c[nH]c3ccccc23)NC(=O)[C@H](CCC(=O)O)NC(=O)[C@H](Cc2ccccc2)N(C)C(=O)[C@H](Cc2ccccc2)NC(=O)CSC[C@@H](C(N)=O)NC(=O)[C@H](CCCCN)NC(=O)[C@H](C)NC(=O)[C@H](Cc2ccc(O)cc2)NC(=O)[C@H](Cc2ccc(O)cc2)NC(=O)[C@H](C(C)C)NC(=O)[C@H](Cc2ccccc2)N(C)C(=O)[C@H](CCCNC(=N)N)NC1=O	ARID1B	binding, TR-FRET competition		1% DMSO		IC50	0.02 µM
O=C(CCc1c(C(=O)Nc2ccc(Cl)cc2)[nH]c2ccc(C(F)(F)F)cc12)Nc1ccc(Cl)cc1	gyrB with GyrA					IC50	7.9 µM
CC(C)C[C@@H]1NC(=O)CN(C)C(=O)[C@H](Cc2c[nH]c3ccccc23)NC(=O)[C@H](CCC(=O)O)NC(=O)[C@H](Cc2ccccc2)N(C)C(=O)[C@H](C)NC(=O)CSC[C@@H](C(N)=O)NC(=O)[C@H](CCCCN)NC(=O)[C@H](C(C)C)NC(=O)[C@H](Cc2ccc(O)cc2)NC(=O)[C@H](Cc2ccc(O)cc2)NC(=O)[C@H](C(C)C)NC(=O)[C@H](Cc2ccccc2)N(C)C(=O)[C@H](CCCNC(=N)N)NC1=O	ARID1B	binding, TR-FRET competition		1% DMSO		IC50	> 1 µM
Cc1cccc(NC(=O)CCc2c(C(=O)Nc3cccc(C)c3)[nH]c3ccc(Cl)cc23)c1	gyrB with GyrA					IC50	32.5 µM
CC(C)C[C@@H]1NC(=O)[C@H](C)N(C)C(=O)[C@H](Cc2c[nH]c3ccccc23)NC(=O)[C@H](CCC(=O)O)NC(=O)[C@H](Cc2ccccc2)N(C)C(=O)[C@H](Cc2ccccc2)NC(=O)CSC[C@@H](C(N)=O)NC(=O)[C@H](CCCCN)NC(=O)[C@H](C(C)C)NC(=O)[C@H](Cc2ccc(O)cc2)NC(=O)[C@H](Cc2ccc(O)cc2)NC(=O)[C@H](C(C)C)NC(=O)[C@H](Cc2ccccc2)N(C)C(=O)[C@H](CCCNC(=N)N)NC1=O	ARID1B	binding, TR-FRET competition		1% DMSO		IC50	> 1 µM
O=C(c1ccc(N=S(=O)(F)N2Cc3cccnc3C2)cc1Cl)N1CCO[C@@H](c2ccccc2)C1 (stereo partly drawn)	Hemagglutinin (HA, Influenza A virus, UniProt P03452)		A/Puerto Rico/8/1934			IC50	0.22 µM
CC(C)c1nc2cc(O)ccc2c(=O)n1-c1ccc(C#N)cc1	Transient receptor potential cation channel subfamily V member 1 (TRPV1, Homo sapiens, UniProt Q8NER1, Y511F)	ion current, antagonist, whole-cell patch clamp		mutant Y511F, +80 mV, added: pH 5 stimulus		IC50	4.02 µM
CC[C@H](C)[C@H](NC(=O)[C@H](CO)NC(=O)[C@H](Cc1ccc(O)cc1)NC(=O)[C@H](Cc1ccc(O)cc1)NC(=O)[C@H](CC(N)=O)NC(=O)CNC(=O)[C@H](CO)NC(=O)[C@H](Cc1ccc(O)cc1)NC(=O)[C@H](CO)NC(=O)[C@H](CO)NC(=O)[C@H](CC(N)=O)NC(=O)COCCOCCNC(=O)CN1CCN(CC(=O)O)CCN(CC(=O)O)CCN(CC(=O)O)CC1)C(=O)N[C@@H](CC(C)C)C(N)=O [copper-64 labelled]		dynamic PET	KPC mouse Ptf1a-CreER tdTomato, metastases	intravenous, dose not given, 3.5 min, 84 d after tamoxifen		tissue uptake	15.5 %ID/mL
O=C1NC2(CC2)COc2ncc(F)cc2[C@H]2COCCN2c2ccn3ncc1c3n2			Sprague-Dawley rat, female, serum	oral, 5 mg/kg/day, end of recovery, 4-week subacute toxicity		serum sodium	146 ± 1 mmol/L
CC(C)(C)C(=O)OCOP(=O)(OCOC(=O)C(C)(C)C)C1CCCN(O)C1=O (stereo not drawn)	COLO 205					log LC50	-4.39 log M
CC(C)C[C@@H]1NC(=O)CN(C)C(=O)[C@H](Cc2c[nH]c3ccccc23)NC(=O)[C@H](CCC(=O)O)NC(=O)[C@H](Cc2ccccc2)N(C)C(=O)[C@H](Cc2ccccc2)NC(=O)CSC[C@@H](C(N)=O)NC(=O)[C@H](CCCCN)NC(=O)[C@H](C(C)C)NC(=O)[C@H](Cc2ccc(O)cc2)NC(=O)[C@H](Cc2ccc(O)cc2)NC(=O)[C@H](C)NC(=O)[C@H](Cc2ccccc2)N(C)C(=O)[C@H](CCCNC(=N)N)NC1=O	ARID1B	binding, TR-FRET competition		1% DMSO		IC50	0.01 µM
Cc1cc(C(=O)Nc2nc3cccc(C)c3n2[C@H]2CCCCN(C(=O)/C=C/CN(C)C)C2)ccn1	Trypanosoma brucei		STIB795, mouse acute HAT model	oral, 7.5 mg/kg once daily for 4 days, day 28	baseline: mice	survival	0%
COc1ccccc1-c1n[nH]c2nc(NC3CCN(C(=O)Cc4ccc(F)cc4F)CC3)ncc12		bead binding, competition bead pull-down, measured: LINJ.28.2430	Leishmania donovani axenic amastigote extract	10 µM	baseline: vehicle	relative abundance	1.21

For quick reference, copied from above:
Compound	tested on	test	test system	conditions	scale	quantity	value
CCN(CC)C(=O)c1ccc(C(c2cccc(O)c2)N2CC(C)N(Cc3ccccc3)CC2C)cc1 (stereo not drawn)	Delta-type opioid receptor (OPRD1, Homo sapiens, UniProt P41143, K108D)					Ki	0.00039 ± 0.00011 µM
O=C(CCc1c(C(=O)Nc2ccncc2)[nH]c2ccc(Cl)cc12)Nc1ccncc1	gyrB with GyrA					IC50	21.3 µM
CC(C)CC(C(=O)N1CC2(CC1C#N)C(=O)Nc1ccccc12)N(C)C(=O)c1cc2c(F)cc(F)c(F)c2[nH]1 (stereo not drawn)	Caspase-7 (CASP7, Homo sapiens, UniProt P55210)	enzyme activity, inhibitor				IC50	4.69 µM and 4.7 µM
